# Measurements of several laboratories.
# Lines come from different studies, so protocols differ.
# CDK8: Cyclin-dependent kinase 8 (CDK8, Homo sapiens, UniProt P49336)
# UniProt P49336, sequence (whole entry, looked up): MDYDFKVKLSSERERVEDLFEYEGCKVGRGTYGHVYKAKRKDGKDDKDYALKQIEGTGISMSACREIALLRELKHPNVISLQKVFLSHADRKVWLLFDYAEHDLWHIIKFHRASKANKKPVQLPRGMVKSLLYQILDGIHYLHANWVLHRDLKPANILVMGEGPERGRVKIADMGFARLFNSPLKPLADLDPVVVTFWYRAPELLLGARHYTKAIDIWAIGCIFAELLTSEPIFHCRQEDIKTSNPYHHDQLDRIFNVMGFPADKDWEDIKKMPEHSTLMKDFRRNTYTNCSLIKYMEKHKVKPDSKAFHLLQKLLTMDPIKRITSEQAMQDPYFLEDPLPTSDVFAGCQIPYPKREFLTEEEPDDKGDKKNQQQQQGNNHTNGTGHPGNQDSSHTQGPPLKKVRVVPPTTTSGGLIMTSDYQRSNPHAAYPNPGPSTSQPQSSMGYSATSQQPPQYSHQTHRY
# CDK8 with cyclin C: Cyclin-dependent kinase 8, with cyclin C (CDK8, Homo sapiens, UniProt P49336)
Structure (SMILES),target,assay,setting,scale,endpoint,value
O=C(NC1CCC1)c1ccc2nc(-c3cccc(NS(=O)(=O)NCCN4CCCCC4)c3)cn2c1,CDK8,enzyme activity,10 µM,,remaining activity,86%
C=CC(=O)N1CCC(COCC(=O)N2CCN(c3nc(-c4cnc(N)nc4C(F)F)nc(N4CCOC[C@@H]4C)n3)CC2)CC1,CDK8,KINOMEscan,1 µM,reference: DMSO control,remaining binding,96%
C[C@@H](c1ccc(-n2cnc3c(N)ncnc32)cc1)N1CCc2nn(C)c(Cc3ccccc3)c2C1=O,CDK8,KINOMEscan,0.1 µM,reference: DMSO control,remaining binding,34%
C1=C/COCc2cc(ccc2OCCN2CCCC2)Nc2nccc(n2)-c2cccc(c2)COC/1,CDK8,,concentration not given,,percent of control,75%
CN1CCN(C(=O)c2ccc3cc(CCNc4ccnc5ccc(C#N)cc45)ccc3c2)CC1,CDK8 with cyclin C,TR-FRET kinetics,,,residence time,13.6 min
C=CC(=O)N1CCC(C(=O)NCC(=O)N2CCN(c3nc(-c4cnc(N)nc4C(F)F)nc(N4CCOCC4)n3)CC2)CC1,CDK8,KINOMEscan,1 µM,,remaining binding,100%
CN1CCN(C(=O)c2ccc3cc(CCNc4ncnc5ccc(C#N)cc45)ccc3c2)CC1,CDK8 with cyclin C,TR-FRET kinetics,,,residence time,5.13 min
c1cnc2ccc(Nc3nc(NC4CC4)c4nc[nH]c4n3)cc2c1,CDK8,"kinase activity, inhibitor, SelectScreen kinase profiling",1 µM,reference: control,remaining activity,90%
